Results of several laboratories.
Lines come from different studies, so protocols differ. Several values in a cell are separate wells, animals, samples, runs or records. Numbers after ± are the reported error.

For NC(=O)N1c2ccccc2C=Cc2ccccc21, the fraction unbound was 0.335 (equilibrium dialysis; mouse plasma; 5 µM, 6 h).
With O=c1nc(N2CCN(CC3CCCCC3)CC2)sc2c([N+](=O)[O-])cc(C(F)(F)F)cc12 the fraction unbound was 0.002 (equilibrium dialysis; CD-1 mouse plasma; 1 µM, 18 h, pH 7.4).
For c1cc(-c2ccc3ncnc(Nc4ncco4)c3c2)cc(N2CC3CCC(C2)O3)c1, the fraction unbound was < 0.0032 (human plasma).
For CC(=O)Nc1ccc(O)cc1, the fraction unbound was 0.495 (rapid equilibrium dialysis; rat plasma; 2 µM, 6 h, pH 7.4).
The fraction unbound of CCn1nccc1Nc1ccnc2ccc(-c3ccc(S(=O)(=O)N4CCOCC4)cc3)cc12 is reported as 0.058 (human plasma).
For COCCc1ccc(OCC(O)CNC(C)C)cc1 (stereo not drawn), the fraction unbound was 0.914 (rapid equilibrium dialysis; human plasma; 2 µM, 6 h, pH 7.4).
For c1coc(Nc2ncnc3ccc(-c4cncc(N5CCOCC5)n4)cc23)n1, the fraction unbound was 0.025 (human plasma).
O=C(COc1ccc(N2C(=O)[C@@H]3[C@@H]4C=C[C@@H]([C@H]5C[C@@H]45)[C@@H]3C2=O)cc1)c1cc(Cl)cc(Cl)c1 has a fraction unbound of 0.11 (equilibrium dialysis; culture medium; 5 µM, 6 h, pH 7.4).
The fraction unbound of Cc1noc(C)c1Nc1ccnc2ccc(-c3ccc(S(=O)(=O)N4CCOCC4)cc3)cc12 is reported as 0.092 (human plasma).
The fraction unbound of CC(=O)CC(c1ccccc1)c1c(O)c2ccccc2oc1=O (stereo not drawn) is reported as 0.0219 (equilibrium dialysis; male Sprague Dawley rat plasma; 2 µM, 4 h, pH 7.4, 37 °C).
With CN1CC(Oc2cnc(C#N)cc2-c2ccn3nc(NC(=O)C4CC4)cc3c2)C1 the fraction unbound was 0.46 (mouse plasma diluted 25%; 1 µM, 6 h, pH 7.4).
CCCCCCCCCC(=O)N[C@@H](Cc1c[nH]c2ccccc12)C(=O)N[C@H](CC(N)=O)C(=O)N[C@@H](CC(=O)O)C(=O)N[C@@H]1C(=O)NCC(=O)N[C@@H](CCCN)C(=O)N[C@@H](CC(=O)O)C(=O)N[C@H](C)C(=O)N[C@@H](CC(=O)O)C(=O)NCC(=O)N[C@H](CO)C(=O)N[C@@H]([C@H](C)CC(=O)O)C(=O)N[C@@H](CC(=O)c2ccccc2N)C(=O)O[C@@H]1C has a fraction unbound of < 0.02 (rapid equilibrium dialysis; human plasma; 1 µM, 2 h, 37 °C).
N#C[C@@]1(c2ccc3c(N)ncnn23)O[C@H](CO)[C@@H](O)[C@H]1O has a fraction unbound of 0.879 (human plasma; 10 µM).
For O=S(=O)(c1ccc(-c2ccc3nccc(Nc4cncs4)c3c2)cc1)N1CCOCC1, the fraction unbound was 0.038 (human plasma).
For Nc1nnc(-c2cccc(Cl)c2Cl)c(N)n1, the fraction unbound was 0.374 (mouse plasma).
The fraction unbound of CCCC[C@@H]1NC(=O)[C@H](Cc2ccc(O)cc2)NC(=O)[C@@H]2CCCN2C(=O)[C@H](CC(=O)O)NC(=O)[C@H](C)NC(=O)[C@H](Cc2ccccc2)NC(=O)[C@@H]2CSCCC(=O)N3CN(CN(C3)C(=O)CCSC[C@@H](C(=O)N[C@@H](C)C(N)=O)NC1=O)C(=O)CCSC[C@H](NC(C)=O)C(=O)N[C@@H](CC(C)(C)C)C(=O)N1CCC[C@H]1C(=O)N[C@@H](CCC(=O)O)C(=O)N[C@H](CCCCNC(=O)CCc1cn(CCOCCOCCOCCOCCOCCC(=O)N[C@H]3CSCCC(=O)N4CN5CN(C4)C(=O)CCSC[C@H](NC(=O)[C@@H](CC(=O)O)NC(=O)[C@H](Cc4cccc6ccccc46)NC(=O)[C@@H]4CCCN4C3=O)C(=O)N[C@@H](CCSC)C(=O)N[C@@H](CCCCNC(=N)N)C(=O)N[C@@H](CC(=O)O)C(=O)N[C@@H](Cc3c[nH]c4ccccc34)C(=O)N[C@@H](CO)C(=O)N[C@@H]([C@@H](C)O)C(=O)N3CCC[C@H]3C(=O)N3C[C@H](O)C[C@H]3C(=O)N[C@@H](Cc3c[nH]c4ccccc34)C(=O)N[C@H](C(N)=O)CSCCC5=O)nn1)C(=O)N1CCC[C@H]1C(=O)N[C@@H](Cc1ccc(O)cc1)C(=O)N2 is reported as 0.37 (ultracentrifugation; rat plasma).
c1cc(-c2ccc3ncnc(Nc4ncco4)c3c2)nc(N2CCOCC2)n1 has a fraction unbound of 0.016 (human plasma).
C=CC(=O)Nc1cc(Nc2nccc(Nc3cc(Cl)c(F)cc3C(C)(C)O)n2)c(OC)cc1N1CC[C@@H](N(C)C)C1 gave a fraction unbound of 0.085 (human plasma).
C/C(O)=C(\C#N)C(=O)Nc1ccc(C(F)(F)F)cc1 gave a fraction unbound of 0.022 ± 0.00068 (rapid equilibrium dialysis; CD-1 mouse plasma; 24 h).
For Cc1cccc(C)c1OCC(=O)N[C@@H](Cc1ccccc1)[C@@H](O)C[C@H](Cc1ccccc1)NC(=O)[C@H](C(C)C)N1CCCNC1=O, the fraction unbound was 0.0025 (patients with elevated AAG, plasma; oral, weeks 2 and 16).
For C[C@@H]1CN(Cc2ncccn2)C[C@H]1c1nc2c(cnn2C2CCOCC2)c(=O)[nH]1, the fraction unbound was 0.87 (equilibrium dialysis; mouse plasma; 6 h).
CC(O)C(C)n1ncn(-c2ccc(N3CCN(c4ccc(OCC5COC(Cn6cncn6)(c6ccc(Cl)cc6Cl)O5)cc4)CC3)cc2)c1=O (stereo not drawn) gave a fraction unbound of 0.008 ± 0.005 (equilibrium dialysis; human plasma).
Cc1cc(Nc2ccnc3ccc(-c4ccc(S(=O)(=O)N5CCOCC5)cc4)cc23)on1 gave a fraction unbound of 0.012 (human plasma).
For Clc1cccc(Nc2ncnc3ccc(-c4cccc(N5CCOCC5)c4)cc23)c1, the fraction unbound was 0.0004 (human plasma).
N#C[C@@]12C[C@@H]1[C@@H](n1cnc3c(N[C@@H](C4CCC4)C4CC4)nc(I)nc31)[C@H](O)[C@@H]2O has a fraction unbound of 0.0138 (plasma protein binding; human plasma).
The fraction unbound of CCn1ncc2c1-c1cnc(N)c(c1)O[C@H](C)c1cc(F)ccc1-c1nn(C)nc1C2 is reported as 0.82 (equilibrium dialysis; cell medium with 10% FBS).
Cc1ncc(Cl)cc1NCc1ccc(C(=O)N[C@@H](CC2CCCC2)C(=O)NC2CC2)s1 has a fraction unbound of 0.0001 (rapid equilibrium dialysis; mouse plasma; 1 µM, 4 h).
The fraction unbound of CN1CCN(c2cccc(-c3ccc4ncnc(Nc5ccc(Cl)c(Cl)c5)c4c3)c2)CC1 is reported as < 0.0047 (human plasma).
The fraction unbound of CC1(C)C(/C=C/C=C/C=C/C=C2\N(CCCCS(=O)(=O)O)c3ccc4ccccc4c3C2(C)C)=[N+](CCCCS(=O)(=O)[O-])c2ccc3ccccc3c21 is reported as < 0.1 (mouse serum; 8 h, 37 °C).
For CC(C)N1Cc2cc(C(F)(F)F)ncc2C2=CN=C(NCc3c(F)ccc4c3CCO4)N3C=NC(C1=O)C23 (stereo not drawn), the fraction unbound was 0.01 (mouse plasma).
For C[C@@H](O)[C@H](NC(=O)[C@H](Cc1ccc(O)cc1)NC(=O)[C@H](Cc1ccc(O)cc1)NC(=O)[C@H](CO)NC(=O)[C@H](CCCNC(=N)N)NC(=O)[C@H](Cc1c[nH]cn1)NC(=O)[C@@H](N)Cc1c[nH]c2ccccc12)C(=O)N[C@@H](Cc1c[nH]c2ccccc12)C(=O)N[C@@H](CC(N)=O)C(=O)NCCCC[C@H](NC(=O)[C@H](CC(N)=O)NC(=O)[C@H](Cc1c[nH]c2ccccc12)NC(=O)[C@@H](NC(=O)[C@H](Cc1ccc(O)cc1)NC(=O)[C@H](Cc1ccc(O)cc1)NC(=O)[C@H](CO)NC(=O)[C@H](CCCNC(=N)N)NC(=O)[C@H](Cc1c[nH]cn1)NC(=O)[C@@H](N)Cc1c[nH]c2ccccc12)[C@@H](C)O)C(=O)NCCCC[C@H](NC(=O)[C@H](CCCCNC(=O)[C@H](CC(N)=O)NC(=O)[C@H](Cc1c[nH]c2ccccc12)NC(=O)[C@@H](NC(=O)[C@H](Cc1ccc(O)cc1)NC(=O)[C@H](Cc1ccc(O)cc1)NC(=O)[C@H](CO)NC(=O)[C@H](CCCNC(=N)N)NC(=O)[C@H](Cc1c[nH]cn1)NC(=O)[C@@H](N)Cc1c[nH]c2ccccc12)[C@@H](C)O)NC(=O)[C@H](CC(N)=O)NC(=O)[C@H](Cc1c[nH]c2ccccc12)NC(=O)[C@@H](NC(=O)[C@H](Cc1ccc(O)cc1)NC(=O)[C@H](Cc1ccc(O)cc1)NC(=O)[C@H](CO)NC(=O)[C@H](CCCNC(=N)N)NC(=O)[C@H](Cc1c[nH]cn1)NC(=O)[C@@H](N)Cc1c[nH]c2ccccc12)[C@@H](C)O)C(=O)N[C@@H](CCCCN)C(=O)N[C@@H](CCCCN)C(=O)N[C@@H](CCCCN)C(N)=O, the fraction unbound was 0.05 (human serum albumin).
C=CC(=O)Nc1cc(Nc2nccc(-c3cn(C)c4ccccc34)n2)c(OCC(F)(F)F)nc1N(C)CCN(C)C gave a fraction unbound of 0.57% and 0.56% and 1.46% (rapid equilibrium dialysis; human plasma; 0.1 µg/mL).
Cc1ccccc1CN1C(=O)C2=C(CCN(Cc3ccccc3)C2)N2CCN=C12 gave a fraction unbound of 0.0492 (equilibrium dialysis; plasma; 7.73 mg/L).
With CCNC(=O)OC1CCN(c2nncc3cc(OC)c(OC)cc23)CC1 the fraction unbound was 0.148 (equilibrium dialysis; human plasma).
The fraction unbound of COc1cc2c3c(n(CCCN4CCOCC4)c(=O)c2cc1OC)-c1cc2c(cc1C3=O)OCO2 is reported as 0.068 (equilibrium dialysis; culture medium, 10% FBS; 4300 ng/mL, 24 h).
C=CC(=O)Nc1cc(Nc2nccc(Nc3cc(Cl)c(F)cc3C(C)(C)O)n2)c(OC)cc1N1CC[C@@H](N(C)C)C1 gave a fraction unbound of 0.0026 ± 0.0007 (rat brain slices).

Repeated from above:
With CN1CC(Oc2cnc(C#N)cc2-c2ccn3nc(NC(=O)C4CC4)cc3c2)C1 the fraction unbound was 0.46 (mouse plasma diluted 25%; 1 µM, 6 h, pH 7.4).
The fraction unbound of CC1(C)C(/C=C/C=C/C=C/C=C2\N(CCCCS(=O)(=O)O)c3ccc4ccccc4c3C2(C)C)=[N+](CCCCS(=O)(=O)[O-])c2ccc3ccccc3c21 is reported as < 0.1 (mouse serum; 8 h, 37 °C).
The fraction unbound of Cc1noc(C)c1Nc1ccnc2ccc(-c3ccc(S(=O)(=O)N4CCOCC4)cc3)cc12 is reported as 0.092 (human plasma).
For c1coc(Nc2ncnc3ccc(-c4cncc(N5CCOCC5)n4)cc23)n1, the fraction unbound was 0.025 (human plasma).
For Nc1nnc(-c2cccc(Cl)c2Cl)c(N)n1, the fraction unbound was 0.374 (mouse plasma).
Cc1ncc(Cl)cc1NCc1ccc(C(=O)N[C@@H](CC2CCCC2)C(=O)NC2CC2)s1 has a fraction unbound of 0.0001 (rapid equilibrium dialysis; mouse plasma; 1 µM, 4 h).
